# Results collected from several papers.
# Lines come from different studies, so protocols differ. “And” joins repeats or separate records; there may be more than shown.
SMILES,target or system,assay,test system,conditions,how to read,endpoint,result
C/C(N)=N/C(=N\S(=O)(=O)c1ccc(C(F)(F)F)cc1)N1C[C@H](c2ccccc2)C(c2ccc(Cl)cc2)=N1,,,"male C57BL/6 mouse, liver","intravenous, 5 mg/kg",,AUC(0-inf),17600 ng·h/mL
CN([O-])C(=O)CN1CCNCCN(CC(=O)N(C)[O-])CC1.[89Zr+4],,,"mouse, pancreas","intravenous, 4 h",,tracer uptake,0.12 %ID/g
COCC1CN(C2CCN(c3cc(OC)c(Nc4ncc(Br)c(Nc5ccc6c(c5P(C)(C)=O)OCCO6)n4)cc3C)CC2)C1,,,"EGFR-mutant NSCLC patients, plasma","oral, 150 mg multiple doses, geometric mean",,Cmax at steady state,1400 ng/mL
COc1ccc(C(N)=O)cn1,,,"Han Wistar rats, male, plasma","oral, 30 mg/kg, 2.00 h",,concentration at time,46 µM
O=C(Nc1[nH]nc(-c2ccccn2)c1C1CC1)N1CC[C@@H](Cn2cc(C(F)(F)F)cn2)C1,Trypanosoma cruzi,"reporter mRNA translation, inhibitor, item: capped polyadenylated Renilla luciferase mRNA",cell-free extract,concentration not given,reference: control RNA,relative translation,91.8%
COc1ccc2c(c1)CN(C(=O)CCN1CCC(Cc3ccccc3)CC1)CCS2,,,paroxysmal AF patients,"oral, 540 mg, 24 h",reference: baseline,QTcB change,21.1 ms
O=C(Nc1cnccc1-c1ccc([18F])nc1)c1ccnc(NC(=O)C2CC2)c1,,,"FVB/NJ mice, both sexes, liver","intravenous, 40 min, median, no P-gp inhibitor",,SUV,8.66
CN1CCCNC(=O)c2cccc(c2)C(=O)NCCCN(C)CCCNc2cccc3c2C(=O)c2cccc(c2C3=O)NCCC1,,,mouse xenograft model,"dose not given, day 6",,body weight,25 g and 26 g and 27 g
Cc1c(Cc2cccc(OC(C)(C)C(=O)O)c2)c2ccc(C(=O)NCc3cccc(C(C)(C)C)c3)cc2n1CC1CCC1,,,mouse liver microsomes,"1 µM, together with: microsomes 1 mg/mL",,half-life,40 min
CO[C@@H](C[C@H]1C(C)=CC[C@@H]2[C@]3(C)C[C@H](O[C@@H]4O[C@@H](C)[C@H](O)[C@@H](O)[C@H]4O)[C@@H](O)C(C)(C)[C@H]3CC[C@]21C)[C@H](N)C(=O)O,,,Caco-2,"5 µM, 1 h",,efflux ratio,1.2
CN1CCC[C@]1(C)/C=C/S(=O)(=O)NC(=O)Nc1c2c(cc3c1CC(O)C3)CCC2 (stereo partly drawn),,,"human, plasma","oral, 100 mg twice daily of parent drug, day 14, metabolite of dosed drug",,Cmax at second steady-state dose,10100 ng/mL
[O-]c1cccc(-c2cccc([O-])n2)n1.[Ru+2].c1ccc(-c2ccnc3c2ccc2c(-c4ccccc4)ccnc23)cc1.c1ccc(-c2ccnc3c2ccc2c(-c4ccccc4)ccnc23)cc1,,,acetonitrile,basic deprotonated form,,singlet oxygen quantum yield,< 0.01
CCCCN1C(=O)c2cccc3c(NCCCCN4CCOCC4)ccc(c23)C1=O,,,ethyl acetate,,,fluorescence lifetime,9.6 ns
O=C(CCC(=O)Nc1ccc(Cl)cc1Cl)N/N=C/c1ccc([N+](=O)[O-])o1,Trypanosoma cruzi,"reporter mRNA translation, inhibitor, item: capped polyadenylated Renilla luciferase mRNA",cell-free extract,concentration not given,reference: control RNA,relative translation,95.4%
C=CC(=O)Nc1cc(Nc2nccc(-c3c[nH]c4ccccc34)n2)c(OC)cc1N(C)CCN(C)C,,storage stability,human dried blood spot,"30 d, -80 °C, MQC level",,recovery,92.3%
Cc1nn(-c2nc3c(F)cc(F)cc3s2)c(O)c1C(c1ccc(C(F)(F)F)cc1)c1c(C)nn(-c2nc3c(F)cc(F)cc3s2)c1O,,,"ICR mouse, plasma","intraperitoneal, 10 mg/kg",,Clast,313 ng/mL and 150 ng/mL and 329 ng/mL
C=C(NC(=O)c1csc(-c2nc3c(cc2O)-c2nc(cs2)C(=O)NC(C(C)O)C(=O)NC(=C(C)OC)c2nc(cs2)C(=O)NC2c4nc(cs4)C(=O)NC(COC(=O)c4c5c6c(cccc6n4O)COC(=O)C(OC4CC(C)(O)C(N(C)C)C(C)O4)C2OC5)c2nc-3cs2)n1)C(N)=O (stereo not drawn),,,"ICR mice, Streptococcus pneumoniae ATCC 49169 infected, immunocompromised, blood","intravenous, 16 mg/kg/day three times daily",,AUC(0-inf),1470 ng·h/mL
C=CC(=O)N1CCCC(n2c(=O)c3ncccc3n(Cc3ccc(Oc4ccccc4)cc3)c2=O)C1 (stereo not drawn),,,"male BALB/c mouse, plasma","intraperitoneal, 200 mg/kg, 2 h",,concentration,37800 ng/mL
